Results gathered from unrelated publications.
Each line is one published result; not all experiments were run side by side. Numbers after ± are the reported error.
cofactor-independent phosphoglycerate mutase W431C: cofactor-independent phosphoglycerate mutase (Metamycoplasma orale, UniProt A0A448ZXM1, W431C)
Sigmar1: Sigma non-opioid intracellular receptor 1 (Sigmar1, Rattus norvegicus, UniProt Q9R0C9)
Oprk1: Kappa-type opioid receptor (Oprk1, Rattus norvegicus, UniProt P34975)
Phospholipase D2: Phospholipase D2 (Homo sapiens, UniProt O14939)

| Structure (SMILES) | tested on | assay | system | setting | scale | measurement | result |
| --- | --- | --- | --- | --- | --- | --- | --- |
| O=C(O[C@H](CO)C(F)(F)F)N1C[C@@H]2[C@H](C1)[C@H]2c1ccn(-c2ccc(F)nc2)n1 | SLC6A2 (Homo sapiens, UniProt P23975) |  |  |  | relative to: NET Ki over MAGL IC50 | selectivity ratio | > 400 fold |
| COc1ccc(C[C@@H]2NC(=O)[C@H](Cc3ccc(O)cc3)NC(=O)[C@H](CO)NC(=O)[C@H](CC(=O)O)NC(=O)[C@H](Cc3ccc(O)cc3)NC(=O)[C@H](Cc3c[nH]c4ccccc34)NC(=O)[C@@H](Cc3ccc(O)cc3)NC(=O)CSC[C@@H](C(N)=O)NC(=O)[C@H]([C@@H](C)O)NC(=O)[C@H](Cc3ccc(O)cc3)NC(=O)[C@H](CCC(N)=O)NC(=O)[C@H](C)NC(=O)[C@H]([C@@H](C)O)NC(=O)CNC(=O)[C@@H]3CCCN3C(=O)[C@H](Cc3ccc(O)cc3)NC2=O)cc1 | cofactor-independent phosphoglycerate mutase W431C | biochemical | Mycoplasma orale |  |  | AC50 | 19100 nM |
| CCCC(=O)c1ccc2c(c1)sc(=O)n2CCCCN1CCCCCC1 | Sigmar1 |  |  |  | relative to: Ki sigma-2 over Ki sigma-1 | selectivity ratio | 5 |
| CC(C)C[C@H](NC(=O)[C@H](CCCNC(=N)N)NC(=O)[C@H](Cc1c[nH]c2ccccc12)NC(=O)[C@H](Cc1ccccc1)NC(=O)[C@H](Cc1ccccc1)N(C)C(=O)COc1ccccc1)C(=O)N[C@@H](CCCNC(=N)N)C(=O)N[C@@H](CCCNC(=N)N)C(=O)N[C@H](C)C(=O)N[C@@H](CCCNC(=N)N)C(=O)N1CCC[C@H]1C(=O)N[C@@H](CCCCN)C(N)=O | Oprk1 | binding, [3H]diprenorphine competition | CHO cells |  | relative to: Ki mu over Ki kappa, higher = more kappa-selective | selectivity ratio | 94 |
| O=C(O)C=Cc1ccc(C(=C2CCCCC2)c2ccc(O)cc2)cc1 | ESR2 (Homo sapiens, UniProt Q92731) | binding, radioligand displacement |  | together with: [3H]estradiol | relative to: ERα over ERβ | selectivity ratio | ~5 fold |
| C[C@H](NCc1ccccc1)C(=O)NCC(=O)NCC(=O)N[C@@H](Cc1ccccc1)C(=O)N[C@@H]1CC(=O)NC[C@@H](C(=O)N[C@@H](CCCNC(=N)N)C(=O)N2CCC[C@H]2C(=O)N[C@@H](CCCCN)C(N)=O)NC(=O)[C@H](CCCNC(=N)N)NC(=O)[C@H](CCCNC(=N)N)NC1=O | Oprk1 | binding |  |  | relative to: Ki(MOR) over Ki(KOR) | selectivity ratio | > 19 |
| CN[C@@H](C)C(=O)N[C@H]1CN(C(=O)Cc2ccccc2)CC[C@H]2CC[C@@H](C(=O)NCc3ccc(C(F)(F)F)cc3)N2C1=O | Baculoviral IAP repeat-containing protein 2, BIR3 domain (BIRC2, Homo sapiens, UniProt Q13490) | fluorescence polarization |  |  | relative to: Ki XIAP over Ki cIAP1 | selectivity ratio | 933 |
| CN1C(=O)[C@H](Cc2ccc(O)cc2)NC(=O)CNC(=O)[C@H](Cc2ccc(O)cc2)NC(=O)[C@H](CCC(=O)O)NC(=O)[C@H](Cc2ccc(O)cc2)N(C)C(=O)[C@H](Cc2ccc(O)cc2)N(C)C(=O)[C@H](CCC(N)=O)NC(=O)[C@H](Cc2c[nH]c3ccccc23)NC(=O)[C@H](Cc2ccc(O)cc2)NC(=O)[C@@H](Cc2ccc(O)cc2)NC(=O)CSC[C@@H](C(N)=O)NC(=O)[C@H](CCCCN)NC(=O)[C@@H]1Cc1ccc(O)cc1 | cofactor-independent phosphoglycerate mutase W431C | biochemical | Mycoplasma orale |  |  | AC50 | 1200 nM |
| CN[C@](C)(C[18F])C(=O)O | A549 tumour model |  | host not given, blood | 2 h, tumour-bearing |  | tracer uptake | 0.5 %ID/g |
| Oc1ccc(C2COc3cc(O)ccc3C2)cc1 (racemic) | Estrogen receptor (ESR1, Homo sapiens, UniProt P03372) | array formation | PRL-HeLa |  | relative to: ERα EC50 versus ERβ EC50 | selectivity ratio | > 5 fold |
| N[C@@H](CCC(=O)N[C@@H](CS[Se]Cc1ccc(C(=O)Nc2cc(C(F)(F)F)c(Br)c(C(F)(F)F)c2)cc1)C(=O)NCC(=O)O)C(=O)O | ACP1 (Homo sapiens, UniProt P24666) | enzyme activity |  | together with: pNPP, GSH 1 mM | relative to: IC50 ACP1 over mPTPA | selectivity ratio | 81 |
| O=c1sc2ccccc2n1CCCN1CCCCCC1 | Sigmar1 |  |  |  | relative to: Ki sigma-2 over Ki sigma-1 | selectivity ratio | 43 |
| Cc1cc(N)nc(CC2CNCC2OCCNCC(F)(F)C2CCCCN2)c1 (centres unmarked) | NOS3 (Bos taurus, UniProt P29473) | hemoglobin capture |  |  | relative to: Ki eNOS over Ki nNOS | selectivity ratio | 24 |
| CC(C)[C@H](NC(=O)CNC(=O)[C@H](CCC(N)=O)NC(=O)[C@H](C)N)C(=O)O |  |  | human | single dose, 3 mg/kg |  | probably related adverse events | 0% |
| C=C(C)C1C2OC(=O)C1C1(O)CC3OC34C(=O)OC2C14C (centres unmarked) | GABA-A receptor; GABA-A site (alpha1/beta2 interface) (Homo sapiens, UniProt P14867+P47870) | GABA-induced current, antagonist, two-electrode voltage clamp | Xenopus oocytes | together with: GABA at EC50 |  | Hill coefficient | 1 ± 0.09 |
| C[C@@](O)(C(F)F)[C@H](NC(=O)c1ccc(C#CC#CC2CC2)cc1)C(=O)NO | UDP-3-O-acyl-N-acetylglucosamine deacetylase (Escherichia coli K-12, UniProt P0A725) | enzyme activity, inhibitor |  |  |  | Ki | 0.22 nM |
| COc1ccc(CNc2nc(N3CCC[C@H]3CO)ncc2C(=O)NN)cc1Cl | Salmonella typhimurium |  | TA97a | 125 µg/plate, 48 h, together with: rat liver S9 |  | revertant count | 154 ± 7 |
| CC(C)C[C@H](NC(=O)[C@H](CCCNC(=N)N)NC(=O)[C@H](Cc1c[nH]c2ccccc12)NC(=O)[C@H](Cc1ccccc1)NC(=O)[C@H](Cc1ccccc1)N(C)C(=O)CN)C(=O)N[C@@H](CCCNC(=N)N)C(=O)N[C@@H](CCCNC(=N)N)C(=O)N[C@H](C)C(=O)N[C@@H](CCCNC(=N)N)C(=O)N1CCC[C@H]1C(=O)N[C@@H](CCCCN)C(N)=O | Oprk1 | binding, [3H]diprenorphine competition | CHO cells |  | relative to: Ki mu over Ki kappa, higher = more kappa-selective | selectivity ratio | 33 |
| COC(=O)C1CCCN1C(=O)C(Cc1ccccc1)N(C)C(=O)CC(O)C(CC(C)C)NC(=O)C(CC(C)C)N(C)C(=O)C(CC(C)C)NC(=O)C(O)C(C)C (centres unmarked) | Cathepsin D (CTSD, Homo sapiens, UniProt P07339) |  |  |  | relative to: cathepsin E IC50 over cathepsin D IC50 | selectivity ratio | 2 fold |
| COC(=O)N(C)[C@@H](Cc1ccccc1)C(=O)N[C@@H](Cc1ccccc1)C(=O)N[C@@H](CC1CCCCC1)C(=O)N[C@@H](CCCNC(=N)N)C(=O)N[C@@H](CC(C)C)C(=O)N[C@@H](CCCNC(=N)N)C(=O)N[C@@H](CCCNC(=N)N)C(=O)N[C@H](C)C(=O)N[C@@H](CCCNC(=N)N)C(=O)N1CCC[C@H]1C(=O)N[C@@H](CCCCN)C(N)=O | Oprk1 | binding, [3H]diprenorphine competition | CHO cells |  | relative to: Ki mu over Ki kappa, higher = more kappa-selective | selectivity ratio | 227 |
| CCC[C@H]1CC[C@H](c2ccc(NC(=S)NC[C@@H]3[C@@H](O)[C@@H](O)[C@H]4[C@H](O)CCCN43)cc2)CC1 | Alpha-mannosidase 2 (Homo sapiens, UniProt Q16706) | inhibitor |  | together with: fluorogenic mannoside substrate | relative to: lysosomal over Golgi mannosidase Ki | selectivity ratio | 106 |
| CCC(=O)c1ccc2c(c1)sc(=O)n2CCCCCN1CCCCCC1 | Sigmar1 |  |  |  | relative to: Ki sigma-2 over Ki sigma-1 | selectivity ratio | 0.7 |
| COC(=O)N(C)[C@@H](Cc1ccccc1)C(=O)N[C@@H](Cc1ccccc1)C(=O)N[C@@H](Cc1c[nH]c2ccccc12)C(=O)N[C@@H](CCCNC(=N)N)C(=O)N[C@@H](CC(C)C)C(=O)N[C@@H](CCCNC(=N)N)C(=O)N[C@@H](CCCNC(=N)N)C(=O)N[C@H](C)C(=O)N[C@@H](CCCNC(=N)N)C(=O)N1CCC[C@H]1C(=O)N[C@@H](CCCCN)C(N)=O | Oprk1 | binding, [3H]diprenorphine competition | CHO cells |  | relative to: Ki mu over Ki kappa, higher = more kappa-selective | selectivity ratio | 134 |
| CCC(=O)c1ccc2c(c1)sc(=O)n2CCN1CCCCCC1 | Sigmar1 |  |  |  | relative to: Ki sigma-2 over Ki sigma-1 | selectivity ratio | 483 |
| O=C(NCCN1CCC2(CC1)C(=O)NCN2C(=O)C1CC1)c1ccc2ccccc2c1 | Phospholipase D2 |  |  |  | relative to: PLD1 IC50 over Phospholipase D2 IC50 | selectivity ratio | 7 fold |
| CCC(=O)c1ccc2c(c1)sc(=O)n2CCN1CCCC1 | Sigmar1 |  |  |  | relative to: Ki sigma-2 over Ki sigma-1 | selectivity ratio | 41 |
| CC[C@H](C)C(=O)N1CCC(NC(=O)Nc2ccc(OC(F)(F)F)c(F)c2)CC1 |  |  | healthy volunteers | oral, 24 mg single dose |  | subjects with serious TEAE | 0% |
| O=C(NCCN1CCC2(CC1)C(=O)NCN2Cc1cccnc1)c1cc2ccccc2[nH]1 | Phospholipase D2 |  |  |  | relative to: PLD1 IC50 over Phospholipase D2 IC50 | selectivity ratio | 69 fold |
| CCCCc1ccc2c(c1)sc(=O)n2CCCCCCN1CCCCCC1 | Sigmar1 |  |  |  | relative to: Ki sigma-2 over Ki sigma-1 | selectivity ratio | 0.3 |

Excerpt of the above:
| Structure (SMILES) | tested on | assay | system | setting | scale | measurement | result |
| --- | --- | --- | --- | --- | --- | --- | --- |
| CCC(=O)c1ccc2c(c1)sc(=O)n2CCCCCN1CCCCCC1 | Sigmar1 |  |  |  | relative to: Ki sigma-2 over Ki sigma-1 | selectivity ratio | 0.7 |
| Cc1cc(N)nc(CC2CNCC2OCCNCC(F)(F)C2CCCCN2)c1 (centres unmarked) | NOS3 (Bos taurus, UniProt P29473) | hemoglobin capture |  |  | relative to: Ki eNOS over Ki nNOS | selectivity ratio | 24 |
